Measurements pooled from the literature.
A part holds a random share of what one study measured. Positions count from the first letter of the parent shown.

Sample 1 — technique: aptamer microarray, sandwich; form: DNA with 2'F-ANA; sample: in vitro; concentration: 200 nM; with: Cy3 exosite-II aptamer, 400 nM; direction: higher = stronger binding; oligonucleotide: GGTTGGTGTGGTTGG
Target: Prothrombin, mature alpha-thrombin (F2, Homo sapiens, UniProt P00734)
Notes: whole 15-mer aptamer, many near background
For `2'F-ANA at 1 2 6 9 10 15`, “mean fluorescence intensity” read 69.5 a.u.
Under “mean fluorescence intensity”, `2'F-ANA at 2 5 6 11 14` is recorded as 45.6 a.u.
`2'F-ANA at 1 3 5 7 8 9 11 14 15` — result for “mean fluorescence intensity”: 52 a.u.
`2'F-ANA at 2 3 5 6 7 9 12 14 15` — result for “mean fluorescence intensity”: 52.5 a.u.
`2'F-ANA at 2 3 6 7 8 12 13`: “mean fluorescence intensity” 1050 a.u.
`2'F-ANA at 1 3 4 5 6 8 9 14` — result for “mean fluorescence intensity”: 44.8 a.u.
Under “mean fluorescence intensity”, `2'F-ANA at 1 5 6 8 11 13 15` is recorded as 52.6 a.u.
`2'F-ANA at 1 2 5 6 9 10 11 15`: “mean fluorescence intensity” 45.5 a.u.
Under “mean fluorescence intensity”, `2'F-ANA at 2 4 5 7 8 9 10 13 15` is recorded as 47.1 a.u.
For `2'F-ANA at 4 5 6 8 10 11 15`, “mean fluorescence intensity” read 47.4 a.u.
For `2'F-ANA at 3 6 8 9 11 14`, “mean fluorescence intensity” read 522 a.u.
Under “mean fluorescence intensity”, `2'F-ANA at 3 6 7 10 11 12 13 14` is recorded as 370 a.u.
`2'F-ANA at 4 5 6 11 12 15`: “mean fluorescence intensity” 95.4 a.u.
Under “mean fluorescence intensity”, `2'F-ANA at 1 2 3 6 8 9 13 15` is recorded as 184 a.u.
Under “mean fluorescence intensity”, `2'F-ANA at 6 8 10 11 12 13` is recorded as 158 a.u.
`2'F-ANA at 2 6 7 8 11 12 15`: “mean fluorescence intensity” 542 a.u.
Under “mean fluorescence intensity”, `2'F-ANA at 2 3 5 6 8 11 13 14 15` is recorded as 54 a.u.
For `2'F-ANA at 1 2 3 4 7 9 10 11 13 15`, “mean fluorescence intensity” read 55.7 a.u.
`2'F-ANA at 1 7 8 9 11 14 15`: “mean fluorescence intensity” 63.4 a.u.
`2'F-ANA at 1 4 5 6 8 10 11 13 14 15`: “mean fluorescence intensity” 58.1 a.u.
`2'F-ANA at 3 4 5 6 7 9 10 12 15` — result for “mean fluorescence intensity”: 59.9 a.u.
For `2'F-ANA at 1 5 6 7 8 11 12 13 14`, “mean fluorescence intensity” read 67.6 a.u.
`2'F-ANA at 1 3 4 6 8 9 10 11 12 14`: “mean fluorescence intensity” 61.3 a.u.
`2'F-ANA at 1 2 3 4 10 14`: “mean fluorescence intensity” 50.6 a.u.
`2'F-ANA at 2 5 6 7 12 15`: “mean fluorescence intensity” 137 a.u.

Sample 2 — technique: protein-binding microarray; form: double-stranded DNA, one strand shown; sample: in vitro; concentration: 940 nM top; notes: 60-bp whole probe; with: salmon DNA 0.4 mg/ml; baseline: random background probes; direction: higher = stronger binding; all sequences stand within: GCCTAGCAC … GTCTTGATTCGCTTGACGCTGCTG
Target: Interferon regulatory factor 5, full length, phosphomimetic (IRF5, Homo sapiens, UniProt Q13568-2, residues 1-514, S451D/S453D/S456D/S462D)
For `TTTCCACTTTCTTTTGCTTGGTGCTAG`, “fitted relative affinity” read 2.97 z-score.
Under “fitted relative affinity”, `GACGGTTCCCTATTCCTGACGTGCTAG` is recorded as 0.88 z-score.
`TGAGGTTTCGGACTGGGTTAGTGCTAG`: “fitted relative affinity” 5.25 z-score.
`GACGGTTCCGGGTATCGGGACGTGCTA` — result for “fitted relative affinity”: 1.45 z-score.
Under “fitted relative affinity”, `TCAAGTTTGTATATATTACTGTGCTAG` is recorded as 0.133 z-score.
`GTAGATCTCAGTTTCGATTAGTGCTAG`: “fitted relative affinity” 7.31 z-score.
`TTCCTTTCTCTTCCGTTAGCGTGCTAG` — result for “fitted relative affinity”: 2.71 z-score.
Under “fitted relative affinity”, `TTTTTTTTTTTTTTTTTTACGTGCTAG` is recorded as 1.54 z-score.
Under “fitted relative affinity”, `TTAGGTATCCTACTGCTTTCGTGCTAG` is recorded as 0.443 z-score.
For `CTGAGGCTGTGTTTTCACTTTGTGCTA`, “fitted relative affinity” read 0.0445 z-score.
Under “fitted relative affinity”, `GCCGGTATCGACTATCGGGACGTGCTA` is recorded as 5.74 z-score.
`TTAGGTTTCCATATCCTTTAGTGCTAG` — result for “fitted relative affinity”: 1.95 z-score.
For `TCTTTTTATGCTTTCTTTAAGTGCTAG`, “fitted relative affinity” read 2.7 z-score.
Under “fitted relative affinity”, `GACGGTATCGACACTGGGGGCGTGCTA` is recorded as 5.52 z-score.
Under “fitted relative affinity”, `TTAGGTCTCCATCTCCTTTAGTGCTAG` is recorded as 0.348 z-score.
Under “fitted relative affinity”, `GAGGGTTTCGGTATCGGGACGTGCTAG` is recorded as 11.1 z-score.
Under “fitted relative affinity”, `TCAGTTACCCACCTCAGACTGTGCTAG` is recorded as 0.358 z-score.
For `GAGGATATCGGGTATCGAGACGTGCTA`, “fitted relative affinity” read 0.965 z-score.
`TCAGGTATCGGGTTTCGGTTAGTGCTA`: “fitted relative affinity” 7.14 z-score.
`TTAGGACTGGATTATCGGTTAGTGCTA`: “fitted relative affinity” -0.328 z-score.
Under “fitted relative affinity”, `TTAGGTATCTGGTTTCGGTTAGTGCTA` is recorded as 8.53 z-score.

Sample 3 — technique: RNA Bind-n-Seq; form: RNA; sample: in vitro; concentration: not given; baseline: input RNA pool; direction: higher = stronger binding
Target: RING finger protein unkempt homolog, zinc fingers 1-6, GST-SBP tag (UNK, Homo sapiens, UniProt Q9C0B0, residues 30-357)
Notes: RNA with constant flanks, human-mouse chimeric sites, ends assumed
Target sequence (chain): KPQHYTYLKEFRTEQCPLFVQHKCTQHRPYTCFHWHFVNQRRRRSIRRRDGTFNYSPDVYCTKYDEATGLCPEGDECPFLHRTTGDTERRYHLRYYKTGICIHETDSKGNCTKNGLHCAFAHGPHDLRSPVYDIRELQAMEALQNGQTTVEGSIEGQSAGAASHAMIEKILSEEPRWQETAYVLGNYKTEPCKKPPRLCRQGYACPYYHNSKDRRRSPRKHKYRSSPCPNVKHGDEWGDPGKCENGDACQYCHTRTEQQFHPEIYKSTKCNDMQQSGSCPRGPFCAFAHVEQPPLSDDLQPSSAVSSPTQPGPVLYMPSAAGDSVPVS
`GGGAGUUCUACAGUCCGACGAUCCUGUUUUGACAGCCACAAAUUCUUGGCAUGUAUUAAGGAAAAAAAAAAUCCCUGUUCAAGUAGUUUUUCCACCUAUCAGCACUGAGUAAAUGCCAUAACUCCGCGGAAAUGGUCUAAAUACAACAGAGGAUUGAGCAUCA` has a bound/input enrichment of 0.226 ratio.
`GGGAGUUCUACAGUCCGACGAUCUCUUUAAAAAAAAAAUUACAGGAAAAUACAGUGCUUUCCCUCCCAUAGAUCCACGUUCAAGCUCAAAGAGCAAAGGCUUUGCACGGAGCUCAAACAUAAAAGAAAGAAAGAUUUCUGAGACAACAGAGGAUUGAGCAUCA` gave a bound/input enrichment of 0.547 ratio.
`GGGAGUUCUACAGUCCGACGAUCUGUGAACUGUCUCUUGAGAUCUAAAAACAAGAUGACUUUUCCUGGCACAUAUUCCAAAGCAUAGACUUUGUUGCCUGCUGCUUCUUGUCUAAUUUACAGGGAUAUUUAAUUUUGUCAGGUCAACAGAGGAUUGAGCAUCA` gave a bound/input enrichment of 0.129 ratio.
`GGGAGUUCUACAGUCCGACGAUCCGCUUGGAUGAGGCGGGUGUUACUGAUGAAGUGCUAGAUUCUGCCAUGCAAGCCUUCCUUCUGGAGGUCAUUGUUAAACAUGGGGAGCCAGCCCCUUAUUUAUGUAACAAAGAUCCGUUUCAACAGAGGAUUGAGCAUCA` has a bound/input enrichment of 0.0901 ratio.
`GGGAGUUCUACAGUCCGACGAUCUACUACUAUGAUGGUGAUAUUGGAAAUUAUUAUUAUGGCCAGGGUCAUCCCAUGAAGCCUCAUAGAAUCCGGAUGACUCAUAACUUGCUGCUAAAUUAUGGUUUAUACAGAAAAAUGGAACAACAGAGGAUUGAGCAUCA` has a bound/input enrichment of 0.283 ratio.
`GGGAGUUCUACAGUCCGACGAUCUUAAUCCCCUUUACUGCUCCACCACUGCUCAUGGUAAUAACAAAGUCUUAUAUCCCCGUCCUAGCUUUCACUCAGAUGGCUUAUGGAGCCGGUUUCCUAGCUUUCUUGGGAGGGAUCAGACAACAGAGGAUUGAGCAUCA` has a bound/input enrichment of 0.481 ratio.
With `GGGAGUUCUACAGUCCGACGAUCCUAAUCCCCUUUACUGCUCCCCCACUUGUCAUGCUGAUAACAAAGUCUUAUAUCCCCGUCCUAGCUUUCACUCAGAUGGCUUAUGGAGCCGGUUUCCUAGCUUUCUUGGGAGGGAUCAGACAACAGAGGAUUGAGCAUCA` the bound/input enrichment was 0.893 ratio.
`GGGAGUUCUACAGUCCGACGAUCCACGUGUCUGCAGUACUUGAUGUGGACUACUCUCCCACUGGGAAGGAGUUUGUGUCUGCCAGCUUUGAUAAGUCUAUUAGAAUCUUUCCUGUGGACAAGAGCCGAAGCAGGGAGGUAUAUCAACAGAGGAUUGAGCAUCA` gave a bound/input enrichment of 0.239 ratio.

Sample 4 — technique: DHFR PCA, deep sequencing; sample: yeast; with: (+)-ABA 17 µM; baseline: wild-type fitted maximum; direction: higher = stronger binding
Target: ABI1, truncated, D143A, DHFR fusion (Arabidopsis thaliana)
Notes: methotrexate growth selection, single substitutions
Starting sequence: PYL1, truncated, DHFR fusion (Arabidopsis thaliana); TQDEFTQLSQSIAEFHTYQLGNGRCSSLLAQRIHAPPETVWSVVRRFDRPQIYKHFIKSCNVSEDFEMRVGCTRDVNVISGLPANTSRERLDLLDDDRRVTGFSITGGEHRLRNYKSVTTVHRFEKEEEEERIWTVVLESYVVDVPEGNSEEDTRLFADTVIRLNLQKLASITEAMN
`S63A`: “relative binding score” 91.1%.
`F15P` — result for “relative binding score”: 5.64%.
Under “relative binding score”, `C72E` is recorded as 75.2%.
For `R46P`, “relative binding score” read 15.1%.
Under “relative binding score”, `E4Y` is recorded as 71.6%.
`R88N` — result for “relative binding score”: 77.7%.
`R123K`: “relative binding score” 105%.
Under “relative binding score”, `Q10C` is recorded as 77.6%.
`E127C`: “relative binding score” 84.2%.
For `P36M`, “relative binding score” read 60.8%.
`S104R` — result for “relative binding score”: 18.5%.
For `E38S`, “relative binding score” read 72.2%.

Sample 5 — target: CCND3, cyclin fold, Cln2 fusion (human); technique: yeast growth competition, sequencing; sample: yeast; notes: weak parent motif; baseline: not given; direction: higher = stronger binding
Starting sequence: RBL1 docking peptide (human); GSAKRRLFGEDPP
Under “normalised enrichment score”, `P12V` is recorded as 0.139.
For `R6E`, “normalised enrichment score” read 0.146.
Under “normalised enrichment score”, `E10P` is recorded as 0.129.
For `A3H`, “normalised enrichment score” read 0.0646.
Under “normalised enrichment score”, `L7K` is recorded as 0.168.
For `E10H`, “normalised enrichment score” read 0.175.
`A3I`: “normalised enrichment score” 0.015.
`A3M` — result for “normalised enrichment score”: 0.0951.
Under “normalised enrichment score”, `S2K` is recorded as 0.0858.
`S2I` — result for “normalised enrichment score”: 0.138.
`F8I`: “normalised enrichment score” 0.155.
`R6A`: “normalised enrichment score” 0.131.
For `F8V`, “normalised enrichment score” read 0.125.
`A3G`: “normalised enrichment score” 0.115.
For `L7N`, “normalised enrichment score” read 0.215.
`R6V`: “normalised enrichment score” 0.147.
For `R5G`, “normalised enrichment score” read 0.0585.
For `S2F`, “normalised enrichment score” read 0.0243.
`G1M` — result for “normalised enrichment score”: -0.0168.
Under “normalised enrichment score”, `L7A` is recorded as 0.0621.
Under “normalised enrichment score”, `D11T` is recorded as 0.156.
`A3L` — result for “normalised enrichment score”: 0.0848.
Under “normalised enrichment score”, `F8S` is recorded as 0.105.
Under “normalised enrichment score”, `G9C` is recorded as 0.125.
`F8C`: “normalised enrichment score” 0.142.

Further values, each from its own experiment
The fold induction of `PhoQ, residues 284 288 289 292 302 303 SSTLSG` is reported as 10.1 (PhoP, residues 12 14 15 18 19 VQALL (Escherichia coli, UniProt P23836); Sort-seq, item: YFP reporter; E. coli; PhoQ-PhoP variant library, with: 10 µM Mg2+; baseline: high Mg2+ state, higher = stronger signaling).

A few entries again (sample 5):
For `S2F`, “normalised enrichment score” read 0.0243.
For `F8V`, “normalised enrichment score” read 0.125.
For `E10H`, “normalised enrichment score” read 0.175.
`A3L` — result for “normalised enrichment score”: 0.0848.
Under “normalised enrichment score”, `D11T` is recorded as 0.156.
For `A3H`, “normalised enrichment score” read 0.0646.
`R6V`: “normalised enrichment score” 0.147.
`S2I` — result for “normalised enrichment score”: 0.138.
Under “normalised enrichment score”, `L7A` is recorded as 0.0621.
Under “normalised enrichment score”, `P12V` is recorded as 0.139.
`F8C`: “normalised enrichment score” 0.142.
